# Assay results collected from several papers.
# The chains behind the UniProt entries cited, without tags or fusion partners.
# UniProt P11712, whole entry: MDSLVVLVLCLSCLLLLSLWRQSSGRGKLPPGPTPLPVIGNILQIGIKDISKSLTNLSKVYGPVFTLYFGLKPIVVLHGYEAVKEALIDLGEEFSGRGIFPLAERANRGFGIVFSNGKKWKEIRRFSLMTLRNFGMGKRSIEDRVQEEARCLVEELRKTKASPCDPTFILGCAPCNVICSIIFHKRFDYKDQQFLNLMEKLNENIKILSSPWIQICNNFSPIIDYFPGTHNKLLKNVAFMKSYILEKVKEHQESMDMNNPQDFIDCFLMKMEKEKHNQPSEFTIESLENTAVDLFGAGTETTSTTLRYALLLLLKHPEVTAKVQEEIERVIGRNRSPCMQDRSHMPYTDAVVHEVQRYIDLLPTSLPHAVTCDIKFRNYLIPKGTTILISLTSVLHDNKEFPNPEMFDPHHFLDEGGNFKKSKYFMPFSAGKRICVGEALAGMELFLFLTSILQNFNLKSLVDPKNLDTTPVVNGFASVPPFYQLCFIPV
# UniProt P05181, whole entry: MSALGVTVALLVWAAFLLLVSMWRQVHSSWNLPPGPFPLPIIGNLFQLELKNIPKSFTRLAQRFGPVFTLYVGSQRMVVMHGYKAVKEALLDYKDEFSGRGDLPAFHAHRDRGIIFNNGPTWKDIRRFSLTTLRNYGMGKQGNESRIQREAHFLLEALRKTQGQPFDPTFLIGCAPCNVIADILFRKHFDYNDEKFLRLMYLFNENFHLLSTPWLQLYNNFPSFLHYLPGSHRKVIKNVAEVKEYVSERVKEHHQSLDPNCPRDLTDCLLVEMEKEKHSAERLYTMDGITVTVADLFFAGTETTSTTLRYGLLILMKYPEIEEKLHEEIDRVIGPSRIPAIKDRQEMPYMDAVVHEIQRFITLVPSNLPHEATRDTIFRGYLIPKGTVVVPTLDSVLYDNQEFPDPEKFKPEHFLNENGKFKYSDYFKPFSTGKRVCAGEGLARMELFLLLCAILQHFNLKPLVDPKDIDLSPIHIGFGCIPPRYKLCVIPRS
# UniProt P00639, whole entry, looked up: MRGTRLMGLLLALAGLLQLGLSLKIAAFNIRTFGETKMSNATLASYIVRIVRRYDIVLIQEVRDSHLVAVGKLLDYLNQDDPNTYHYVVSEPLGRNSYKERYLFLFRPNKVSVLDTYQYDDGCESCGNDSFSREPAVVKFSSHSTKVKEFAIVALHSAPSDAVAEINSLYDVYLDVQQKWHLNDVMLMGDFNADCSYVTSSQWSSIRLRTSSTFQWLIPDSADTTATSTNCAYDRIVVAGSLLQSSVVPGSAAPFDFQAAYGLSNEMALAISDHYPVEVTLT
# UniProt Q16539, whole entry: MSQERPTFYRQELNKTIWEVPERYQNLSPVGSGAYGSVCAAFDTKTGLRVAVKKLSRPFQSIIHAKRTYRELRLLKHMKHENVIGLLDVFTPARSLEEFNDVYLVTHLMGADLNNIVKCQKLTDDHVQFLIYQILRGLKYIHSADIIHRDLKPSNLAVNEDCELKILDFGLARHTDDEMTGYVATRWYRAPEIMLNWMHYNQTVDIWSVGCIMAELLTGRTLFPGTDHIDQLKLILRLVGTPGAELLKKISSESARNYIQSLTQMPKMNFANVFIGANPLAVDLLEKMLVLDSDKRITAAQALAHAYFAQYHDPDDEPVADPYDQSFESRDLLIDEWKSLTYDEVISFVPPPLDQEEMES
# UniProt P08183, whole entry: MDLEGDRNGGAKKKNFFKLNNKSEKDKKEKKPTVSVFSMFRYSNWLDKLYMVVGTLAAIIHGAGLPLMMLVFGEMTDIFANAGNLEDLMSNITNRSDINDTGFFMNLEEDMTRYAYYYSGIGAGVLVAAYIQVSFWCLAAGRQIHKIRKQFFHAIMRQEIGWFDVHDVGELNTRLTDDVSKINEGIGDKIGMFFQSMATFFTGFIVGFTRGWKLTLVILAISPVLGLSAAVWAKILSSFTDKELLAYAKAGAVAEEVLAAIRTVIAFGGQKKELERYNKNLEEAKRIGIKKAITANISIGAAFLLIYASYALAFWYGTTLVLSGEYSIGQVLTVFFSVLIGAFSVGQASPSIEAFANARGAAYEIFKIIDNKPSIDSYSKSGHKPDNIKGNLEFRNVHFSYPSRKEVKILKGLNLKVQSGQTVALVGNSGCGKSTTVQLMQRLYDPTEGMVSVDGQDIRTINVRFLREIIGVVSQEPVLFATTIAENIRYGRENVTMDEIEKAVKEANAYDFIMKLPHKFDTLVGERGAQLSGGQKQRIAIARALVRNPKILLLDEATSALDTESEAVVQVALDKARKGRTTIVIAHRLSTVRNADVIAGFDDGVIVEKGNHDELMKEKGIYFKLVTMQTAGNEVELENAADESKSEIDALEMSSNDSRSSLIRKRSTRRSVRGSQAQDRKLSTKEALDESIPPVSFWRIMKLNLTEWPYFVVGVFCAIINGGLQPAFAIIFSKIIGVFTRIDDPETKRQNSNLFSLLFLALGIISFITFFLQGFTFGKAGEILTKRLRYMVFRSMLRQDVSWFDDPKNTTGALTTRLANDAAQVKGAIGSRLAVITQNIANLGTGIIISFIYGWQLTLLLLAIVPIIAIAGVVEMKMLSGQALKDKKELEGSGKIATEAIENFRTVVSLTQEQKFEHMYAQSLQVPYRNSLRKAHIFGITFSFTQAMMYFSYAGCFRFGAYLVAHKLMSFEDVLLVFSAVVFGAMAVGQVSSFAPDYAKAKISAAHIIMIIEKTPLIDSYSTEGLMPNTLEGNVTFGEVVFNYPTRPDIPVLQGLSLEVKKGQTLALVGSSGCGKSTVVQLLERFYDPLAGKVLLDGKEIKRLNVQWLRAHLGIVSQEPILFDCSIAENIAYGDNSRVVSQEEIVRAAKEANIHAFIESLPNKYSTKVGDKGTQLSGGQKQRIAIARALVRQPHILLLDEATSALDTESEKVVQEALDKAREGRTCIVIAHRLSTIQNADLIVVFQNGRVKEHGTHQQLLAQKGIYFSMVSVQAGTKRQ
# Protocols differ between the studies behind these lines. ± marks the error that the study gave.
SMILES,tested on,test,test system,conditions,scale,endpoint,result
CCOC(=O)C1=C(C)N(c2cccc(C(F)(F)F)c2)C(=O)N(CC(=O)N(C)C)[C@@H]1c1ccc(C#N)cc1,"Cytochrome P450 2C9 (CYP2C9, Homo sapiens, UniProt P11712)",,human liver microsomes,"pH 7.4, with: diclofenac",,IC50,> 50 µM
COc1ncnc2scc(C(=O)NCc3ccc(CN4CCOCC4)cc3)c12,human red blood cells,hemolysis,,"1 h, 37 °C, estimated, weak activity",,EC50,> 100 µM
CCCCCCCCC/C=C/C=O,"Cytochrome P450 2E1 (CYP2E1, Homo sapiens, UniProt P05181)",competitive inhibitor,human liver S9,with: p-nitrophenol,,Ki,2.6 ± 0.1 µM
CCCOc1ncnc2scc(C(=O)NCc3ccc(CN4CCOCC4)cc3)c12,human red blood cells,hemolysis,,"1 h, 37 °C, estimated, weak activity",,EC50,> 100 µM
C=C(C)C(=O)Nc1ccc(-c2c(-c3ccc(Oc4nccc(C)n4)c(F)c3)c3c(N)ncnc3n2C)cc1,MFE-319,"cell growth, CellTiter-Glo",,120 h,,IC50,8.44 µM
CC/C=C\C/C=C\CCC/C=C/C=C/C=C\CCCC(=O)O,"Deoxyribonuclease-1 (DNASE1, Bos taurus, UniProt P00639)","enzyme activity, inhibitor",,,,IC50,> 100 µM
CN1C(=O)CCc2cc(CNC(C)(C)[C@@H](O)c3ccccc3)ccc21,,,"male CD-1 mouse, plasma","subcutaneous, 10 mg/kg",,Cmax,228 ng/mL
NS(=O)(=O)c1nnc(NC(=O)CC2C3CC4CC(C3)CC2C4)s1 (stereo not shown),,,n-octanol/PBS,pH 7.4,,logD,2.35
O=C(NCc1ccco1)C1CN(c2cc(-c3cc(F)cc(F)c3)n[nH]c2=O)C1,BJ or MRC5 fibroblasts,"cytotoxicity, MTS",,,,IC50,> 50 µM
CCOC(=O)c1c(-c2ccc(Cl)cc2Cl)n(-c2nc(-c3ccc(Cl)cc3)c3c(NC(=O)c4ccccc4)nnc-3[nH]2)[nH]c1=O,SN12C,SRB,,10 µM,,cell growth,-17.4%
CC(C)C[C@H](NC(=O)[C@H](C)NC(=O)[C@H](CCCNC(=N)N)NC(=O)[C@H](CCCNC(=N)N)NC(=O)[C@H](CCCNC(=N)N)NC(=O)[C@H](C)NC(=O)[C@H](CC(C)C)NC(=O)[C@H](CCCNC(=N)N)NC(=O)[C@H](CO)NC(=O)[C@H](CCCCN)NC(=O)[C@H](CO)NC(=O)Cn1cc(COC(=O)[C@]2(C)C=C(C(=O)OC(C)(C)C)C(=O)CC2)nn1)C(=O)O,"Mitogen-activated protein kinase 14 (MAPK14, Homo sapiens, UniProt Q16539)","enzyme activity, inhibitor, D-SENSOR",,0.003387 µM,,normalized kinase activity,0.945
[2H]C(C)(CO[C@H]1CC[C@H](CN2CCN(c3ccc4c(c3F)n(C)c(=O)n4C3CCC(=O)NC3=O)CC2)CC1)NS(=O)(=O)c1ccc(Nc2ncc(C(F)(F)F)c([C@H]3CC[C@@](C)(O)CC3)n2)c(C)c1 (stereo partly shown),"ATP-dependent translocase ABCB1 (ABCB1, Homo sapiens, UniProt P08183)",bidirectional permeability,MDCK transfected with ABCB1,,reference: B-A over A-B permeability,efflux ratio,> 26
Cc1ccc(S(=O)(=O)Nc2ccccc2C(=O)Nc2nc(-c3ccccc3)cs2)cc1,,,rat liver microsomes,"37 °C, with: NADPH",,half-life,2.5 min
NS(=O)(=O)c1nnc(NC(=O)C2C3CC4CC(C3)CC2C4)s1 (stereo not shown),,,mouse liver microsomes,,,half-life,> 120 min
N#Cc1c(-c2ccc(Cl)cc2Cl)n(-c2nc(-c3ccc(Cl)cc3)c3c(NC(=O)c4ccccc4)nnc-3[nH]2)[nH]c1=O,SK-OV-3,SRB,,10 µM,,cell growth,-5.94%
COc1ncnc2scc(C(=O)NCc3ccc(CNCc4ccccc4)cc3)c12,human red blood cells,hemolysis,,"1 h, 37 °C, estimated, weak activity",,EC50,> 100 µM

# A few entries again:
SMILES,tested on,test,test system,conditions,scale,endpoint,result
[2H]C(C)(CO[C@H]1CC[C@H](CN2CCN(c3ccc4c(c3F)n(C)c(=O)n4C3CCC(=O)NC3=O)CC2)CC1)NS(=O)(=O)c1ccc(Nc2ncc(C(F)(F)F)c([C@H]3CC[C@@](C)(O)CC3)n2)c(C)c1 (stereo partly shown),"ATP-dependent translocase ABCB1 (ABCB1, Homo sapiens, UniProt P08183)",bidirectional permeability,MDCK transfected with ABCB1,,reference: B-A over A-B permeability,efflux ratio,> 26
